Experimental data gathered from unrelated publications.
Each numbered part is a random draw from the data of one study; scales do not carry over between parts. Positions count from the first letter of the parent shown.

Block 1 — method: DHFR PCA, deep sequencing; medium: yeast; together with: (+)-ABA 58 µM; relative to: wild-type fitted maximum; reading: higher = stronger binding; endpoint: relative binding score
Target: ABI1, truncated, D143A, DHFR fusion (Arabidopsis thaliana)
Notes: methotrexate growth selection, single substitutions
Starting sequence: PYL1, truncated, DHFR fusion (Arabidopsis thaliana); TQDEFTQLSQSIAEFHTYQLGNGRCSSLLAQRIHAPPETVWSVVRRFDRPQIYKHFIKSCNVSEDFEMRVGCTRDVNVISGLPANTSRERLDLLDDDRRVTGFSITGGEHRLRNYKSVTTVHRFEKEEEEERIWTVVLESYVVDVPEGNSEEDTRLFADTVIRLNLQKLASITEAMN; partner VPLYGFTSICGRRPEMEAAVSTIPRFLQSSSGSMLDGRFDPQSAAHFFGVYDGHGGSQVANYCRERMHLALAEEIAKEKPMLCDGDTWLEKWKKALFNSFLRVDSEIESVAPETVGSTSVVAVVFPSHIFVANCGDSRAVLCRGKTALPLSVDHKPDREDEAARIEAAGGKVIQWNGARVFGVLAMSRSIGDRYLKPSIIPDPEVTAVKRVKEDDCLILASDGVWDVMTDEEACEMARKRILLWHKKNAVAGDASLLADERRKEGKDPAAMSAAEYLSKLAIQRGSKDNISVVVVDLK
D48W: 11.9%
H110S: 34.1%
K116L: -2.07%
D144A: 47.6%
R88C: 80.4%
V137R: -5.03%
E4I: 95.7%
N114C: 32.7%
E67C: 81.2%
L8E: 44.9%
N22K: 96%
R32F: 63.3%
N22A: 94.6%
S117F: -1.58%
T86H: 84.1%

Block 2 — method: protein-binding microarray; form: double-stranded DNA, one strand shown; medium: in vitro; concentration: 2540 nM top; notes: 60-bp whole probe; together with: salmon DNA 0.4 mg/ml; relative to: random background probes; reading: higher = stronger binding; endpoint: fitted relative affinity; shared flanks, not repeated: GCCTAGCAC … GTCTTGATTCGCTTGACGCTGCTG
Target: Interferon regulatory factor 3, full length, phosphomimetic (IRF3, Homo sapiens, UniProt Q14653, residues 1-427, S386D/S396D/S398D/S402D/T404D/S405D)
Residues (chain): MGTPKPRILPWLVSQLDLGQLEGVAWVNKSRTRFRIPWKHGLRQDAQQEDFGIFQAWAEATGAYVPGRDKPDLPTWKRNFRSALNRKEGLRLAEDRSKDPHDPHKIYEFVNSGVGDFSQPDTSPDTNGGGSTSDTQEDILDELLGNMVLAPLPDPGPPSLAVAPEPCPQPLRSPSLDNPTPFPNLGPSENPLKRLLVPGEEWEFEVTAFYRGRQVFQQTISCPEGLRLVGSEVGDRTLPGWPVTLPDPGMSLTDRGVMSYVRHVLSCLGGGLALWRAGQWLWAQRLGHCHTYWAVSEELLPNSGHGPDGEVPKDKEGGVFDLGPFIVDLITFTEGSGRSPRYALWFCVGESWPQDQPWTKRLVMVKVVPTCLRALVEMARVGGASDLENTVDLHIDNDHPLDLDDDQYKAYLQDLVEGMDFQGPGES
TTAGAATTCGGGTATCGATTAGTGCTA: 0.403 z-score
GACGATATCGCGACTGGAGACGTGCTA: -0.179 z-score
TTAGGTCTCGGACTGAGTTAGTGCTAG: -0.284 z-score
TCATACATCTATGTAGAACTGTGCTAG: 0.192 z-score
TTAGGTTTCGGTTCCGGTTGGTGCTAG: 10.8 z-score
TCATCTTTTTTGTTCCAACTGTGCTAG: 1.69 z-score
GGCTCTCTGGACTGTGTGTTTGTGCTA: -1.05 z-score
ATGTCTTCCCCTCTCTTTCCGTGCTAG: 1.04 z-score
TTAGATTTGAGTCTCGATTAGTGCTAG: -0.02 z-score
TCATTTATAAATTATCTTACTGTGCTA: 1.39 z-score
GACGGTATCGGGTAGCGGGACGTGCTA: 0.918 z-score
AGTTTTTACTTTCTGAATGCGTGCTAG: 4.12 z-score
TTAGGTATCGGAACTGGGTTAGTGCTA: 3.64 z-score
GACTGACTGGACTATCGGGACGTGCTA: -0.306 z-score
GACGATTTCAGTTTCGAGGCGTGCTAG: 4.31 z-score
TTTCTCTGCTCTTTTCAACAAGTGCTA: 2.98 z-score

Block 3 — method: RNA Bind-n-Seq; form: RNA; medium: in vitro; concentration: 200 nM; notes: whole 134-nt RNA, ends assumed; together with: 150 mM KCl; relative to: input library; reading: higher = stronger binding; endpoint: log2 enrichment
Target: Ras GTPase-activating protein-binding protein 1, full length (G3BP1, Homo sapiens, UniProt Q13283)
Sequence of UniProt Q13283 (whole entry, looked up): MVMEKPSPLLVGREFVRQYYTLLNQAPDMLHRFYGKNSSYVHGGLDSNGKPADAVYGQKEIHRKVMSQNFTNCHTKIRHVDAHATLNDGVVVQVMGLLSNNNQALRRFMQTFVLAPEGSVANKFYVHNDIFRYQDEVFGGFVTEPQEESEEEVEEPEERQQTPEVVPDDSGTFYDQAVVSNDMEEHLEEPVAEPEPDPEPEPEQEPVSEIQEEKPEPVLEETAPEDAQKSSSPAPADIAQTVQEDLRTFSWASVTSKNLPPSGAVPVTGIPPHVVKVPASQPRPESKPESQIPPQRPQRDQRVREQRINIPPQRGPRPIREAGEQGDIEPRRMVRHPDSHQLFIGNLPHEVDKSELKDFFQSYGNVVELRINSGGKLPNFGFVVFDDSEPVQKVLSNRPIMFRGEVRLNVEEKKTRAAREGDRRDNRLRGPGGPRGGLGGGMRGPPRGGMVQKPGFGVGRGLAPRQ
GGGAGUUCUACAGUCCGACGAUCAAGUCCUGUGCUACACAUCGUAUGUACCGAAUCGGAAAAAGGUUUUUUUGGUUUGGAAAGUAUUAUGUUACGCCGUUCGGAUCUGCACUUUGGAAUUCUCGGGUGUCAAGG: -1.6
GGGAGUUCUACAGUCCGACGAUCCUCAAGUCCUGUGCUACACAUCGUAUGUACCGAAUCGGGGAAGGGAAGGAAGGAAAGUAUUAUGUUACGCCGUUCGGAUCUGCACUUCCAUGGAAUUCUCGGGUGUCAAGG: -0.0981
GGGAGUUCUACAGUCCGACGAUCUGGCCCUGGUGGCAUGCGGGGAGGAAGAGGUGGCCUCAUGGAUCGUGGUGGUCCCGGUGGAAUGUUCAGAGGUGGCCGUGGUGGAUACAGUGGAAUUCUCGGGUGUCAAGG: 0.245
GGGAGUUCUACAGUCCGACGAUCUCCUGUGCUACACAUCGUAUGUACCGAAUCGGCCCCCGGGGCCCCCGGGGCCCCCGGGGAAAGUAUUAUGUUACGCCGUUCGGAUCUGCAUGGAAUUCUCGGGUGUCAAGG: -1.11
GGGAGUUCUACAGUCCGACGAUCAAGUCCUGUGCUACACAUCGUAUGUACCGAAUCGUGUGUGUGUGUGUGUGUGUGUGUAAAGUAUUAUGUUACGCCGUUCGGAUCUGCACUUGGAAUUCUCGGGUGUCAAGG: 0.557
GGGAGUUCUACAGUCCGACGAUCCACAGACAACACGCACCCACACUGACACAGAGGGAAGGGGUUGGGAUGGGGACAGGGUGCACAGCAGGGCGGGGUAGGACCCCAGCCCCUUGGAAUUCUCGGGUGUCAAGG: 2.01
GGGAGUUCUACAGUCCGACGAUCGUCCUGUGCUACACAUCGUAUGUACCGAAUCGGAAAAAAAGGAAAAAAAGGUUUUUGGAAAGUAUUAUGUUACGCCGUUCGGAUCUGCACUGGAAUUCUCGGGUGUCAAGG: -1.47

Block 4 — method: RNAcompete; form: RNA; medium: in vitro; concentration: 20 nM; notes: 7-mer, probes averaged, single round; relative to: mean of 7-mers; reading: higher = stronger binding; endpoint: 7-mer Z-score
Target: PABPC1L2, full length, GST fusion (mouse, UniProt A0ABA7IW68)
Residues (chain): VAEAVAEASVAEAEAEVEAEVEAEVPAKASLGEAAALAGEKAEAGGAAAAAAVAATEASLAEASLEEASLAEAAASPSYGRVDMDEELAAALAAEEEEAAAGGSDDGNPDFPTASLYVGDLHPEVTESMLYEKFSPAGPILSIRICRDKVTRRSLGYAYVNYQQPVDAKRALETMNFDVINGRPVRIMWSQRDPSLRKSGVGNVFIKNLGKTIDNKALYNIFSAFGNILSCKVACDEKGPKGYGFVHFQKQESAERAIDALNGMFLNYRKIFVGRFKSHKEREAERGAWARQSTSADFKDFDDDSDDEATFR
AGCACUC: -0.209
CAGUAAU: -0.0645
CGUCUGG: -0.202
GGAUAUG: 0.0823
UUGGUCA: -0.108
AUCCCUC: -0.271
CGUUUCG: -0.566
GUGCUCC: -0.322
GCAAAUC: -0.021
AUAGCCA: -0.0101
CUUGAAC: -0.17
GACGGUG: 0.0207
CAAGUAU: -0.0428

Block 5 — method: protein binding microarray; form: double-stranded DNA, one strand shown; medium: in vitro; concentration: not given; relative to: not given; reading: higher = stronger binding; endpoint: E-score
Target: Histone acetyltransferase KAT6A, winged helix 1, GST fusion (KAT6A, Homo sapiens, UniProt Q92794, residues 1-85)
Notes: 8-mer, flanks averaged, mean of 2 arrays, mostly near background
Construct (chain): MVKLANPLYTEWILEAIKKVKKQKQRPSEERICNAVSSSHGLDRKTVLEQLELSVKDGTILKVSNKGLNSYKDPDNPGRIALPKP
ACATAGCT: -0.14
ATGGGACG: -0.124
AGCTCAAA: -0.127
GAATACTC: 0.0169
ACTCACAT: -0.267
CCATGTTC: -0.0851
AACCGGTG: 0.215
AAAGCTCA: -0.209
GAAACCGA: 0.077
CTTACTGC: 0.0486
CGTAACAA: 0.0681
CGTCCTAC: 0.0984
AGAGTACT: -0.0627
CGCTCGTA: 0.0905

Block 6 — method: RNA Bind-n-Seq; form: RNA; medium: in vitro; concentration: 365 nM; relative to: no-protein control; reading: higher = stronger binding; endpoint: RBNS enrichment (R)
Target: RNA binding protein fox-1 homolog 2, RRM domain, GST-SBP tag (RBFOX2, Homo sapiens, UniProt O43251-10, residues 100-194)
Notes: natural RNA segment, single round, ends assumed
Target sequence (chain): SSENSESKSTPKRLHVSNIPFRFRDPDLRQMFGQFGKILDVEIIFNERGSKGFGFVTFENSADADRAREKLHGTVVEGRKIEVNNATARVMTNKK
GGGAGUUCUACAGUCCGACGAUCAAGUGAACCAAACUAGUUCUCAGAAUUCUACAGAGAAGGAGGGAAUCAGACUGAGGAAGCUGUGACAUAGGACUUGAAGACCAAAGACUUUGAAAUUUGCGAGCUGCUCAUGGAAUUCUCGGGUGCCAA: 0.44
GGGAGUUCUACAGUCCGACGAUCCUUCAUUUCUGGUGGCUUGGCUCUUGAGGUCACAGAUGAAGCUACACGUGGGCUGAGCUGACUUGAUGCUCCUAUGGGUGGUGCCCGGCCCCCACGGGGGUUCACUAGGUUGGAAUUCUCGGGUGCCAA: 2.68
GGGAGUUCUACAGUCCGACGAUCUAUAAAAGCCUUUUCAGAGUUUUCAUCUGAUUUGUCCUGAGGAUCUAGUUCUAUCAAAUACCUUAUUUUACCUUUGCCAUACUUGCUGCACAAGCAGACACUGCUGGACUUGGAAUUCUCGGGUGCCAA: 0.224
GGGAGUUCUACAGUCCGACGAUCUUUUUGUGAAAUUAUCUUGAUUUACAACGUGGUAUUGUAUUUUACAGAGUUCAUGAAGCCCCAAACAAUUUUUAUUUUUGUAAAACAAUUGUAUGUUUAAUCUGUUUCUGUGGAAUUCUCGGGUGCCAA: 0.473
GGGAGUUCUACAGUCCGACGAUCCAGGAGCAACUGUCCAGCCCUCCAGAAGAGACAGCAAGCAGCCCCCCUACCCACUCUGGCCUCCCCAAUGGUACUUUGACCUCCAGUGUAGGGCUAUACUAUACAUAUAUUGGAAUUCUCGGGUGCCAA: 0.34
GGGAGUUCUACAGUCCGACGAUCUUUUUUUCAGAGCCAGUGGCUGGUCUUCCAUUUACAGUGUCACUAUUCCCUGACGGAGCUGUUAUGUGCCGCUCUAGCGAAGGCCCCAGCCGGGAUGCUAGGCCUAAUUGUGGAAUUCUCGGGUGCCAA: 0.419
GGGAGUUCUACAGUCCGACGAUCAAAAAAACAAGGAAAAAAAAUAAUGCUUCAACGCUUUUAAAACAGCAAGAUACUAGUUCUUUGAUACUUUGAGAGGCGCUUUGAUUACCCCGAUUGAAGUCUCUGAAACUUGGAAUUCUCGGGUGCCAA: 0.474
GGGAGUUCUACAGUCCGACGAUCCUGUAAGUUCUAAAUGUGUACUCCUGAGGUUACAGUUUGGGUGUUAGGAGAAGUCUUUGUAGUCUCUUUAUGUUCAUAAUGAAUACUGUAUCAAUAUUUCCUAACAUGAAUGGAAUUCUCGGGUGCCAA: 0.54

For quick reference, copied from above (block 5):
CGTAACAA: 0.0681
CTTACTGC: 0.0486
CGTCCTAC: 0.0984
AACCGGTG: 0.215
GAATACTC: 0.0169
AGCTCAAA: -0.127
ATGGGACG: -0.124
ACTCACAT: -0.267
